Literature values that unrelated publications cite.
Numbers after ± are the reported error.
CA12: Carbonic anhydrase 12 (CA12, Homo sapiens, UniProt O43570)
UniProt O43570, sequence (whole entry, looked up): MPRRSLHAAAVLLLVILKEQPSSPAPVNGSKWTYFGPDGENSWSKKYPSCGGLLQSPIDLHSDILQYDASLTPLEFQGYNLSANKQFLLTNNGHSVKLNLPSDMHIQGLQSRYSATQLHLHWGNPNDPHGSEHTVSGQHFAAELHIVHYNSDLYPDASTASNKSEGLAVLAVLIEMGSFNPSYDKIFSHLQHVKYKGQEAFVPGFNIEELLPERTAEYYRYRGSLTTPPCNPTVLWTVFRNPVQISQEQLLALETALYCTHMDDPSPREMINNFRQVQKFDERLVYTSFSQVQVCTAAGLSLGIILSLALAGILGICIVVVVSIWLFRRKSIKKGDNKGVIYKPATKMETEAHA
CA2: Carbonic anhydrase 2 (CA2, Homo sapiens, UniProt P00918)
UniProt P41968, sequence (whole entry, looked up): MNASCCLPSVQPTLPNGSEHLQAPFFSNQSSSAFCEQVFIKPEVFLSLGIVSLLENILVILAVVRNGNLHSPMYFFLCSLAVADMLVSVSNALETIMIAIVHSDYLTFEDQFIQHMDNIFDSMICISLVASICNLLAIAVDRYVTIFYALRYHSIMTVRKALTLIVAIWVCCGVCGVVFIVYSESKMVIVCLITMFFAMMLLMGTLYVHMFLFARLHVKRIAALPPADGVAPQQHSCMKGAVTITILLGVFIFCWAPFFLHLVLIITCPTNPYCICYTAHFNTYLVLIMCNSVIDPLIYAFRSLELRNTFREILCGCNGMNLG
UniProt Q6W5P4, sequence (whole entry, unmodified, looked up): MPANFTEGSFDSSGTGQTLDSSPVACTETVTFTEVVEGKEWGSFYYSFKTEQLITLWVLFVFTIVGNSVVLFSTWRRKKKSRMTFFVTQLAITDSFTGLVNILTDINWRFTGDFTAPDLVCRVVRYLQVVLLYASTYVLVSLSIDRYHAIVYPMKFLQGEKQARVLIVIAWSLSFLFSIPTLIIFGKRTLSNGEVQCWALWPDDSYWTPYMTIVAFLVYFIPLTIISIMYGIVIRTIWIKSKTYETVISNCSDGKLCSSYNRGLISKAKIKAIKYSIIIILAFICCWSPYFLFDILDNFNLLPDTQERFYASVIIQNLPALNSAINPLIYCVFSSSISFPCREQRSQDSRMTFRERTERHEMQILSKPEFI
UniProt P00915, sequence (whole entry, looked up): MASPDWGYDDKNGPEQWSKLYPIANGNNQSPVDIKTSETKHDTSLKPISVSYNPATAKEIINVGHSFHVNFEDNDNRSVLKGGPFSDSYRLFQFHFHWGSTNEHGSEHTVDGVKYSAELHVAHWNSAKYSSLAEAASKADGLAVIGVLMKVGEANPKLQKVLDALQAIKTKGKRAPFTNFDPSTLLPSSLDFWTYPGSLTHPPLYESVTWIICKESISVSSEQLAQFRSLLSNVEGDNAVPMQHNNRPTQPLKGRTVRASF
UniProt Q61143, sequence (whole entry, looked up): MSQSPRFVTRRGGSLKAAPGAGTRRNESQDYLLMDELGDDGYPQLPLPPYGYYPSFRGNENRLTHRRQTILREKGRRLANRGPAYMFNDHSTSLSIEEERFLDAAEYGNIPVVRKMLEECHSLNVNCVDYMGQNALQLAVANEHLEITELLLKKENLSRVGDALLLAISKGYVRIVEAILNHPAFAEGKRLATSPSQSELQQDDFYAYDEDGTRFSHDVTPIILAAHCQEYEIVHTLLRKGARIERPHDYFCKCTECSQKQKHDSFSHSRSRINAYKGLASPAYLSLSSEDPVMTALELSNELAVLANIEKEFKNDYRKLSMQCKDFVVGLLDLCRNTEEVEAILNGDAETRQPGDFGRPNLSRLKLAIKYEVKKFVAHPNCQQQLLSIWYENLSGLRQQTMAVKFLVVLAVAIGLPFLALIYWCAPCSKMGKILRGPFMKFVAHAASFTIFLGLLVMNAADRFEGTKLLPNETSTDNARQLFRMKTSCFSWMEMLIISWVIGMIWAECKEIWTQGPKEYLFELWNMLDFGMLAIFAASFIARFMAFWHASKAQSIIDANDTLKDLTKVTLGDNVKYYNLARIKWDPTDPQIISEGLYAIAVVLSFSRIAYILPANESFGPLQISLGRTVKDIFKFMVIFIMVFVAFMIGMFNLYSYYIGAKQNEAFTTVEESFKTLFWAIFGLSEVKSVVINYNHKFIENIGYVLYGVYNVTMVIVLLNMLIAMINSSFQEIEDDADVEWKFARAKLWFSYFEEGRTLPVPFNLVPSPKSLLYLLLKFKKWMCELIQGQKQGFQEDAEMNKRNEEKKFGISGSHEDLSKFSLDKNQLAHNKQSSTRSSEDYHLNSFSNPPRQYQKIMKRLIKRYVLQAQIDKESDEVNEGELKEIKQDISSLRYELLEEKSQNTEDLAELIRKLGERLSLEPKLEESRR
UniProt P11229, sequence (whole entry, looked up): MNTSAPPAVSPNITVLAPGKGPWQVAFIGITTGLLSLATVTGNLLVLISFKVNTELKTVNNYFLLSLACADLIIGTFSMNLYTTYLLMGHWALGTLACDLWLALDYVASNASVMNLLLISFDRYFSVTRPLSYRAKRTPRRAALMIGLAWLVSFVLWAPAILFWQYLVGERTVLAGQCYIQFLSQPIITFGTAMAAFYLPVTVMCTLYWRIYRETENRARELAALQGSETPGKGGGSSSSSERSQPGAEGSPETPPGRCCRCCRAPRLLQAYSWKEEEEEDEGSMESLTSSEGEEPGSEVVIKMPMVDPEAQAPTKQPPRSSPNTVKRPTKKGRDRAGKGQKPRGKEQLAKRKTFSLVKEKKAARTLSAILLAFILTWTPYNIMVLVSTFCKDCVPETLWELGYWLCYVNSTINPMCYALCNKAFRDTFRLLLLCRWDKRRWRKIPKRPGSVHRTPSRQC

Structure (SMILES) = NS(=O)(=O)c1c(F)c(F)c(SCCc2ccccc2)c(F)c1N1CCOCC1; target = CA12; test = fluorescent thermal shift; setting = pH 7.0, 37 °C, observed; quantity = Kd; result = 100 µM
Structure (SMILES) = N=C(N)NCCC[C@H](NC(=O)[C@H](Cc1ccccc1)NC(=O)[C@@H](N)CO)C(=O)N[C@@H](CC(N)=O)C(=O)NCC(N)=O; target = Neuropeptide S receptor (NPSR1, Homo sapiens, UniProt Q6W5P4, N107I); test = calcium mobilization, agonist; setting = receptor variant; quantity = EC50; result = 0.515 ± 0.0512 µM
Structure (SMILES) = CCCC[C@H](NC(=O)[C@@H](NC(=O)[C@@H](N)Cc1ccc(O)cc1)C(C)C)C(=O)NCC(=O)N[C@@H](Cc1c[nH]cn1)C(=O)N[C@H](Cc1ccc2ccccc2c1)C(=O)N[C@@H](CCCN=C(N)N)C(=O)N[C@@H](Cc1c[nH]c2ccccc12)C(=O)N[C@@H](CC(=O)O)C(=O)N[C@@H](CCCN=C(N)N)C(=O)N[C@@H](Cc1ccccc1)C(=O)NCC(N)=O; target = Melanocortin receptor 3 (MC3R, Homo sapiens, UniProt P41968); quantity = EC50; result = > 10 µM
Structure (SMILES) = COc1ccc2nc3cc(Cl)ccc3c(NCCCCNc3nc(N)nc(N)n3)c2c1; target = RNA repeat r(CAG)2; test = binding; quantity = Kd; result = > 300 µM
Structure (SMILES) = Nc1c2ccn3c2nc[n+]1[C@@H]1O[C@H](COP(=O)(O)OP(=O)([O-])OC[C@H]2O[C@@H]3[C@H](O)[C@@H]2O)[C@@H](O)[C@H]1O; target = cADPR receptor, sea urchin; test = Ca2+ release, agonist; system = sea urchin egg homogenate; quantity = EC50; result = 0.09 µM
Structure (SMILES) = NS(=O)(=O)c1c(F)c(F)cc(F)c1NC1CCCCCCC1; target = CA2; test = thermal shift; setting = pH 7.0, 37 °C; quantity = Kd; result = 0.23 µM
Structure (SMILES) = COc1ccc(Oc2ccc(NC(=O)N(C)C)cc2)cc1; target = melatonin receptor 1B; test = agonist; quantity = EC50; result = 14 µM
Structure (SMILES) = CCOC(=O)N1CCC(c2cc(O)n3nc(C)c(-c4ccc(C(F)(F)F)cc4)c3n2)CC1; target = Short transient receptor potential channel 6 (Trpc6, Mus musculus, UniProt Q61143); quantity = EC50; result = ~1.39 µM
Structure (SMILES) = NS(=O)(=O)c1c(F)c(F)c([S+]([O-])CCO)c(F)c1NC1CCCCCCC1 (stereo not drawn); target = CA12; test = fluorescent thermal shift; setting = pH 7.0, 37 °C, observed; quantity = Kd; result = 0.25 µM
Structure (SMILES) = NS(=O)(=O)c1ccc(CCn2c(SCC(=O)N/N=C/c3ccccc3)nc3ccccc3c2=O)cc1; target = Carbonic anhydrase 1 (CA1, Homo sapiens, UniProt P00915); test = enzyme activity, inhibitor; quantity = Ki; result = 0.152 µM
Structure (SMILES) = Cn1ccc(-c2ccc(Cc3cc(C(=O)NC4CCOCC4)nc4c3ccn4C)cn2)n1; target = Muscarinic acetylcholine receptor M1 (CHRM1, Homo sapiens, UniProt P11229); test = agonist; quantity = EC50; result = > 10 µM
Structure (SMILES) = NS(=O)(=O)c1c(F)c(F)cc(F)c1N[C@H]1CCCc2ccccc21; target = CA12; test = fluorescent thermal shift; setting = pH 7.0, 37 °C, observed; quantity = Kd; result = 10 µM
Structure (SMILES) = Nc1c2ncn3c2nc[n+]1[C@@H]1O[C@H](COP(=O)(O)OP(=O)([O-])OC[C@@H]2C[C@@H](O)[C@H]3O2)[C@@H](O)[C@H]1O; target = cADPR receptor, sea urchin; test = Ca2+ release, agonist; system = sea urchin egg homogenate; quantity = EC50; result = 5 µM
Structure (SMILES) = NS(=O)(=O)c1c(F)c(NCCc2ccc(O)cc2)c(SCCO)c(NC2CCCCCCCCCCC2)c1F; target = CA2; test = thermal shift; setting = pH 7.0, 37 °C; quantity = Kd; result = > 200 µM
Structure (SMILES) = BP(=O)(OP(=O)(O)OP(=O)(O)OC[C@H]1O[C@@H](n2cnc3c(N)ncnc32)[C@H](O)[C@@H]1O)OP(=O)(O)OP(=O)(O)OC[C@H]1O[C@@H](n2cnc3c(N)ncnc32)[C@H](O)[C@@H]1O; target = P2Y1 receptor, rat, GFP-tagged; test = agonist; quantity = EC50; result = 0.063 µM

For quick reference, copied from above:
Structure (SMILES) = N=C(N)NCCC[C@H](NC(=O)[C@H](Cc1ccccc1)NC(=O)[C@@H](N)CO)C(=O)N[C@@H](CC(N)=O)C(=O)NCC(N)=O; target = Neuropeptide S receptor (NPSR1, Homo sapiens, UniProt Q6W5P4, N107I); test = calcium mobilization, agonist; setting = receptor variant; quantity = EC50; result = 0.515 ± 0.0512 µM
Structure (SMILES) = CCCC[C@H](NC(=O)[C@@H](NC(=O)[C@@H](N)Cc1ccc(O)cc1)C(C)C)C(=O)NCC(=O)N[C@@H](Cc1c[nH]cn1)C(=O)N[C@H](Cc1ccc2ccccc2c1)C(=O)N[C@@H](CCCN=C(N)N)C(=O)N[C@@H](Cc1c[nH]c2ccccc12)C(=O)N[C@@H](CC(=O)O)C(=O)N[C@@H](CCCN=C(N)N)C(=O)N[C@@H](Cc1ccccc1)C(=O)NCC(N)=O; target = Melanocortin receptor 3 (MC3R, Homo sapiens, UniProt P41968); quantity = EC50; result = > 10 µM
